Measurements of several laboratories.
Lines come from different studies, so protocols differ. ± gives the spread as reported.

Structure (SMILES) | assay | test system | conditions | how to read | endpoint | result
CS(=O)(=O)n1cc2c(n1)CN([C@H]1CO[C@H](c3cc(F)ccc3F)[C@@H](N)C1)C2 | – | healthy male human, plasma | oral, 400 mg, fasted, geometric mean | – | AUC(0-24h) | 145 µM·h
CCCCNC(=O)CCC(C(=O)[O-])N1CCN(CC(=O)[O-])CCN(CC(=O)[O-])CCN(CC(=O)[O-])CC1.[67Ga+3] (stereo not drawn) | RP-TLC | murine plasma | 24 h, 37 °C, 5% CO2 | – | intact radiolabelled complex | 82.2 ± 0.2%
Cc1cc(Nc2cc3ncccc3c(N[C@@H]3C[C@H]4CC[C@@H](C3)N4CCC#N)n2)n[nH]1 | – | Sprague-Dawley rat, male, plasma | oral, 1000 mg/kg/day, last day of 4 weeks | – | Cmax | 62.5 ng/mL
NC(=O)N1c2ccccc2C=Cc2ccccc21 | mitochondrial swelling | BALB/cByJ female mouse liver mitochondria | 30 min, together with: succinate + rotenone | relative to: CaCl2 maximal swelling | EC20 | > 200 µM
Cn1c(-c2ccc(C(N)=O)cc2F)nnc1C(C)(C)Oc1c(F)cc(Cl)cc1F | – | healthy young Japanese subjects, plasma | oral, 10 mg once daily, day 18, 14 days dosing | – | AUC(0-tau) mean | 1950 ng·h/mL
Cc1nc(Nc2ncc(C(=O)Nc3c(C)cccc3Cl)s2)cc(N2CCN(CCO)CC2)n1 | – | Sprague-Dawley rat, female, plasma | intraperitoneal, 5 mg/kg, together with: rosiglitazone co-dosed | – | MRT(0-24 h) | 5.06 ± 0.94 h
O=C(Nc1ccc(OC(F)(F)Cl)cc1)c1cnc(N2CC[C@@H](O)C2)c(-c2ccn[nH]2)c1 | – | healthy volunteers | 40 mg twice daily, together with: probe substrates | – | tolerability | not toxic
O=C(O)CNC(=O)c1ccco1 | – | human hemodialysis patients, plasma ultrafiltrate | pre-treatment | relative to: hemodialysis over normal subjects | free concentration ratio | 82
CC1=C2C[C@H]3[C@@H](CC[C@@H]4C[C@H](NS(C)(=O)=O)CC[C@@]43C)[C@@H]2CC[C@@]2(C1)O[C@@H]1C[C@H](C)CN[C@H]1[C@H]2C | – | patients, plasma | oral, 180 mg single, day -7, cycle 1 | – | Tmax | 5.47 h
O=S(=O)(O)Oc1cc([C@H]2Oc3cc(O)cc(O)c3C[C@H]2O)ccc1O | – | human, fasted baseline, cerebrospinal fluid | – | – | mean concentration | 12.1 nM
CC(C)(CC(=O)N1CCCC1)NCC(=O)N1C[C@@H](F)C[C@H]1C#N | – | Chinese type 2 diabetes patients, plasma | oral, 50 mg once daily, multiple doses | – | AUC(0-tau) at steady state | 728 ng·h/mL
O=[N+]([O-])c1ccc(S(=O)(=O)Cc2ccccc2)c2nonc12 | – | ammonium carbonate buffer | pH 9 | relative to: water | degradation product peak area | 100 fold
Oc1ccc(/C=C/c2cc(O)cc(O)c2)cc1 | mitochondrial swelling | BALB/cByJ female mouse liver mitochondria | 30 min, together with: succinate + rotenone | relative to: CaCl2 maximal swelling | EC20 | > 200 µM
CNCc1ccc(-c2[nH]c3cc(F)cc4c3c2CCNC4=O)cc1 | – | human, fasted, plasma | oral, 600 mg, single dose, median | – | half-life | 18.8 h
C[C@@H](O)[C@H]1C(=O)N2C(C(=O)O)=C(S[C@@H]3CN[C@H](C(=O)N(C)C)C3)[C@H](C)[C@H]12 | microdialysis, noncompartmental | pig (Danish Landrace), subcutaneous adipose tissue | iv infusion, 1000 mg over 10 min, together with: vancomycin co-administered | – | AUC(0-last) | 31200 ng·h/mL
CCN1CCN(c2ccc(Nc3cc(N(C)C(=O)Nc4c(Cl)c(OC)cc(OC)c4Cl)ncn3)cc2)CC1 | LC-MS/MS | juvenile male Crl:WI(Han) rats, plasma | oral gavage, 0.1 mg/kg/day, postnatal day 17 | – | AUC(0-t) | 28.1 ng·h/mL
CO/N=C1\C[C@]2(C[C@@H]3C[C@@H](C/C=C(\C)C[C@@H](C)/C=C/C=C4\CO[C@@H]5[C@H](O)C(C)=C[C@@H](C(=O)O3)[C@]45O)O2)O[C@H](/C(C)=C/C(C)C)[C@H]1C | HPLC | lamb, cranial jejunum mucosa | intraruminal, 0.2 mg/kg, 2 days post-treatment | – | drug concentration | 57.1 ± 5.3 ng/g
NC(=O)C(c1ccccc1)(c1ccc(F)cc1)c1ccc(F)cc1 | LC-MS | male C57BL/6J mice, brain and plasma | intraperitoneal, 50 mg/kg | brain significantly higher than plasma | time brain over plasma concentration | ≥ 6 h

Structure (SMILES) | assay | test system | conditions | how to read | endpoint | result
COc1ccc(-c2coc3cc(O)ccc3c2=O)cc1O | – | extracted rat plasma, autosampler | 37.5 ng/mL, 24 h, 4 °C, post-preparative stability, middle QC | – | accuracy | 104 % nominal
CC(=O)Oc1ccc(C(c2ccc(OC(C)=O)cc2)c2ccccn2)cc1 | cytochrome c release, ELISA | BALB/cByJ female mouse liver mitochondria | 30 min | relative to: alamethicin maximal release | EC20 | > 400 µM
CC(=O)N[C@@H](CCC(=O)O)C(=O)N[C@H](C(=O)N[C@@H](CCCNC(=N)N)C(=O)N[C@@H](CO)C(=O)N[C@@H](CCCCN)C(=O)N[C@@H](CC(C)C)C(=O)N[C@@H](CCC(=O)O)C(=O)N[C@@H](CCC(=O)O)C(=O)N[C@@H](Cc1c[nH]c2ccccc12)C(=O)N[C@@H](Cc1ccccc1)C(=O)N[C@@H](C)C(=O)N[C@@H](C)C(=O)N[C@@H](Cc1ccccc1)C(=O)N[C@@H](CCCNC(=N)N)C(=O)N[C@@H](CCC(=O)O)C(=O)N[C@@H](Cc1ccccc1)C(=O)N[C@@H](C)C(=O)N[C@@H](CCC(=O)O)C(=O)N[C@@H](CCC(=O)O)C(=O)N[C@@H](Cc1ccccc1)C(=O)N[C@@H](CC(C)C)C(=O)N[C@@H](C)C(=O)N[C@@H](CCCNC(=N)N)C(=O)N[C@@H](CC(C)C)C(=O)N[C@@H](CCCCN)C(=O)N[C@@H](CO)C(N)=O)C(C)C | DMS cross-linking, SDS-PAGE | phosphate buffer | 30 min, pH 7.4, 25 °C | – | TFE share for monomeric peptide | > 40 % TFE
Cc1nc(Nc2ncc(C(=O)Nc3c(C)cccc3Cl)s2)cc(N2CCN(CCO)CC2)n1 | – | male C57BL/6 mouse wild type, plasma | intravenous, 10 mg/kg | – | AUC(0-inf) | 3360 ± 314 ng·h/mL
CC[C@H](C)C(=O)O[C@H]1C[C@@H](C)C=C2C=C[C@H](C)[C@H](CC[C@@H]3C[C@@H](O)CC(=O)O3)[C@H]21 | mitochondrial swelling | BALB/cByJ female mouse liver mitochondria | 30 min, together with: succinate + rotenone | relative to: CaCl2 maximal swelling | EC20 | 71.5 µM
COc1cccc(N2CCN(C3=Nc4c(F)cccc4[C@H](CC(=O)O)N3c3cc(C(F)(F)F)ccc3OC)CC2)c1 | UHPLC-MS/MS | healthy women, plasma | intravenous infusion, 240 mg single dose, 30 min infusion, HPβCD formulation | – | MRT | 5.61 ± 1.22 h
CCCC[C@H](NC(=O)CN1CCC(NC(=O)CN2CCN(CC(=O)O)CCN(CC(=O)O)CCN(CC(=O)O)CC2)CC1)C(=O)N[C@H]1CC(=O)NCCCC[C@@H](C(N)=O)N(C)C(=O)[C@H](Cc2c[nH]c3ccccc23)N(C)C(=O)[C@H](CCCNC(=N)N)N(C)C(=O)[C@@H](Cc2ccccc2)NC(=O)[C@H](Cc2c[nH]cn2)N(C)C1=O [gallium-68 labelled] | – | C57BL/6J mice with B16-F10 melanoma, tumour over liver | intravenous, 1 h, together with: MC1R inhibitor BMS 470539 0.5 mg co-injected | – | tumour to tissue ratio | 1.79 ± 0.88
CCCCC1(CCCC)CN(c2ccccc2)c2cc(SC)c(OCC(=O)N[C@@H](C(=O)NCC(=O)O)c3ccccc3)cc2S(=O)(=O)C1 | – | human, plasma | oral, 10 mg, before breakfast | – | AUC(0-t) | 1.09 ng·h/mL
COc1cccc(-c2ccc(NC(=O)C3=C(C(=O)O)CCC3)c(F)c2)c1 | – | male human, plasma | oral, 30 mg, single dose, fasted, healthy volunteers | – | Vd/F | 12.4 L
N[C@@H](CC(=O)O)Cn1nnc(-c2ccc(Oc3ncc(Cl)cc3F)cc2)n1 | – | human, blood | 70 mg single dose, 72 h | – | concentration | ~30 ng/mL
Cn1cnnc1SCC(=O)C12CC3CC(CC(C3)C1)C2 | – | human liver microsomes | 40 min, together with: NADPH | – | intrinsic clearance | ~9 µL/min/mg
O=C(O)/C=C/c1ccc(O)c(O)c1 | UPLC-MS/MS | Wistar rat, microcirculation dysfunction model, plasma | oral, 100 mg/kg Salvia miltiorrhiza stem-leaf extract FS | – | AUC(0-t) | 40.8 ± 4.34 ng·h/mL
CCCC[C@@H]1NC(=O)[C@@H](NC(=O)[C@H](CCC(=O)O)NC(=O)CNC(=O)CN2CCN(CC(=O)O)CCN(CC(=O)O)CCN(CC(=O)O)CC2)CCCCNC(=O)C[C@@H](C(N)=O)NC(=O)[C@H](C(C)C)NC(=O)[C@@H]2CCCN2C(=O)[C@H](CCCNC(=N)N)NC(=O)CNC(=O)[C@H](Cc2c[nH]c3ccccc23)NC(=O)[C@H](CCCNC(=N)N)NC(=O)[C@@H](Cc2ccccc2)NC(=O)[C@H](Cc2c[nH]cn2)NC(=O)[C@H](CCC(=O)O)NC1=O [indium-111 labelled] | – | normal C57 mice, brain | intravenous, 0.037 MBq, 2 h | – | tissue uptake | 0.02 ± 0.01 %ID/g
CC(C)(S)[C@@H](N)C(=O)O | mitochondrial swelling | BALB/cByJ female mouse liver mitochondria | 30 min, together with: succinate + rotenone | relative to: CaCl2 maximal swelling | EC20 | > 400 µM
CNC(=O)c1ccc(-c2cnc3ncc(Cc4ccc5ncccc5c4)n3n2)cc1F | – | human, moderate hepatic impairment (Child-Pugh B), plasma | oral, 200 mg single dose | – | Vz/F (mean) | 340 L
Cc1cc(C(=O)NC(C)(C)COc2cccc3c2C(N)=NS(=O)(=O)N3)cc(C)n1 | – | female Sprague-Dawley rat, plasma | oral, 100 mg/kg, single dose | – | bioavailability | 0.15%
C#CCN(C)Cc1ccccc1 | cytochrome c release, ELISA | BALB/cByJ female mouse liver mitochondria | 30 min | relative to: alamethicin maximal release | EC20 | > 400 µM
CNC(=O)c1cc(Oc2ccc(NC(=O)Nc3ccc(Cl)c(C(F)(F)F)c3)cc2)ccn1 | LC-MS/MS | nude mouse subcutaneous tumour model, tumour tissue | intratumoral, 2 mg/kg, PDC 1 miR-3609 + EPAS-1 mutant | – | t1/2 | 28.7 ± 2.71 h

Some of these lines once more:
Structure (SMILES) | assay | test system | conditions | how to read | endpoint | result
C[C@@H](O)[C@H]1C(=O)N2C(C(=O)O)=C(S[C@@H]3CN[C@H](C(=O)N(C)C)C3)[C@H](C)[C@H]12 | microdialysis, noncompartmental | pig (Danish Landrace), subcutaneous adipose tissue | iv infusion, 1000 mg over 10 min, together with: vancomycin co-administered | – | AUC(0-last) | 31200 ng·h/mL
CCCCC1(CCCC)CN(c2ccccc2)c2cc(SC)c(OCC(=O)N[C@@H](C(=O)NCC(=O)O)c3ccccc3)cc2S(=O)(=O)C1 | – | human, plasma | oral, 10 mg, before breakfast | – | AUC(0-t) | 1.09 ng·h/mL
CC(=O)N[C@@H](CCC(=O)O)C(=O)N[C@H](C(=O)N[C@@H](CCCNC(=N)N)C(=O)N[C@@H](CO)C(=O)N[C@@H](CCCCN)C(=O)N[C@@H](CC(C)C)C(=O)N[C@@H](CCC(=O)O)C(=O)N[C@@H](CCC(=O)O)C(=O)N[C@@H](Cc1c[nH]c2ccccc12)C(=O)N[C@@H](Cc1ccccc1)C(=O)N[C@@H](C)C(=O)N[C@@H](C)C(=O)N[C@@H](Cc1ccccc1)C(=O)N[C@@H](CCCNC(=N)N)C(=O)N[C@@H](CCC(=O)O)C(=O)N[C@@H](Cc1ccccc1)C(=O)N[C@@H](C)C(=O)N[C@@H](CCC(=O)O)C(=O)N[C@@H](CCC(=O)O)C(=O)N[C@@H](Cc1ccccc1)C(=O)N[C@@H](CC(C)C)C(=O)N[C@@H](C)C(=O)N[C@@H](CCCNC(=N)N)C(=O)N[C@@H](CC(C)C)C(=O)N[C@@H](CCCCN)C(=O)N[C@@H](CO)C(N)=O)C(C)C | DMS cross-linking, SDS-PAGE | phosphate buffer | 30 min, pH 7.4, 25 °C | – | TFE share for monomeric peptide | > 40 % TFE
CCCC[C@@H]1NC(=O)[C@@H](NC(=O)[C@H](CCC(=O)O)NC(=O)CNC(=O)CN2CCN(CC(=O)O)CCN(CC(=O)O)CCN(CC(=O)O)CC2)CCCCNC(=O)C[C@@H](C(N)=O)NC(=O)[C@H](C(C)C)NC(=O)[C@@H]2CCCN2C(=O)[C@H](CCCNC(=N)N)NC(=O)CNC(=O)[C@H](Cc2c[nH]c3ccccc23)NC(=O)[C@H](CCCNC(=N)N)NC(=O)[C@@H](Cc2ccccc2)NC(=O)[C@H](Cc2c[nH]cn2)NC(=O)[C@H](CCC(=O)O)NC1=O [indium-111 labelled] | – | normal C57 mice, brain | intravenous, 0.037 MBq, 2 h | – | tissue uptake | 0.02 ± 0.01 %ID/g
Cn1cnnc1SCC(=O)C12CC3CC(CC(C3)C1)C2 | – | human liver microsomes | 40 min, together with: NADPH | – | intrinsic clearance | ~9 µL/min/mg
